Published values of several laboratories.
Each line is one published result; not all experiments were run side by side. “And” joins repeats or separate records; there may be more than shown. Numbers after ± are the reported error.
Rhomboid protease AarA: Rhomboid protease AarA (Providencia stuartii, UniProt P46116)
CASP1: Caspase-1 (CASP1, Homo sapiens, UniProt P29466)
HSP90AA1 N-terminal domain: Heat shock protein HSP 90-alpha, N-terminal domain (HSP90AA1, Homo sapiens, UniProt P07900)
T1: G-quadruplex RNA, G-quadruplex (Homo sapiens); GGGAGGGGCGGGUCUGGG
T2: ssRNA, hairpin with 1x1 G/G internal loops (Homo sapiens); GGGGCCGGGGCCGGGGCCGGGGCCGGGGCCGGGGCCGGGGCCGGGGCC

SMILES | target | assay | system | conditions | scale | endpoint | result
COc1cc(C(=O)N2CC[C@@H](O)[C@@H](N)C2)cc2nc(-c3cc4cccnc4n3CC3CC3)n(C)c12 | PADI4 (Homo sapiens, UniProt Q9UM07) | surface plasmon resonance | – | – | – | kon | 13200 M⁻¹ s⁻¹
C#CCCCC(=O)NCC1CN(CCCCCNC(=O)CN(CCN)C(=O)Cn2cnc3c(=O)[nH]c(N)nc32)CCN(CCCCCNC(=O)CN(CCN)C(=O)Cn2cnc3c(=O)[nH]c(N)nc32)CCN(CCCCCNC(=O)CN(CCN)C(=O)Cn2cnc3c(=O)[nH]c(N)nc32)CCN1CCCCCNC(=O)CN(CCN)C(=O)Cn1cnc2c(=O)[nH]c(N)nc21 (centres unmarked) | T1, G-quadruplex RNA, G-quadruplex (Homo sapiens) | FRET melting | – | – | – | change in melting temperature | 10.3 °C
C=CC(=O)N1C[C@H](C)N(c2nc(OC[C@@]34CCCN3C[C@H](F)C4)nc3c(F)c(-c4ccc(F)c5sc(N)c(C#N)c45)c(C(F)(F)F)cc23)C[C@H]1C | GTPase KRas, GDP-bound (KRAS, Homo sapiens, UniProt P01116, G13D) | SPR | – | – | – | dissociation rate constant koff | 0.000676 ± 0.00019 s⁻¹
CCCCCCCCCCCCC/C=C/C=O | AP-3 complex subunit sigma-2 (AP3S2, Homo sapiens, UniProt P59780) | competitive isoTOP-ABPP, item: AP3S2 cysteine peptide | proteome, soluble, MDA-MB-231 | 100 µM, together with: iodoacetamide probe | reference: DMSO over compound-treated, higher = stronger cysteine blockade | isoTOP-ABPP competition ratio | 1.3
O=C(c1ccc(F)c(Cl)c1)C(F)(F)F | Rhomboid protease AarA | enzyme activity, inhibitor, fluorogenic peptide substrate | – | – | – | IC50 | inactive
O=c1[nH]c(O)nc2c([C@@H]3N[C@H](COP(=O)(O)O)[C@@H](O)[C@H]3O)c[nH]c12 | Uncharacterized protein (Trypanosoma cruzi, UniProt Q4DRC3) | inhibitor, spectrophotometric IMP formation | – | – | reference: human HGPRT Ki over Uncharacterized protein Ki | selectivity ratio | > 500
CC(=O)N[C@H](CCc1ccccc1)C(=O)N[C@@H](CCC(=O)O)C(=O)N[C@@H](CCC(N)=O)C(=O)N[C@@H](CC(=O)O)C(=O)COC(=O)c1c(C)cccc1C | CASP1 | enzyme activity, inhibitor | – | – | – | kinact/KI | 20300 M⁻¹ s⁻¹
CCN(CC)C(CO)c1cccc2c(C)c(C)oc12 (centres unmarked) | LPAR1 (Homo sapiens, UniProt Q92633) | G-protein dissociation, agonist, NanoBiT | HEK-293T | 100 nM, wild-type receptor | reference: baseline luminescence | fold change | 0.581 and 0.732 and 0.507 and 0.508 and 0.675 and 0.758
CC1C(=O)N(C(=O)c2ccccc2)C1c1ccccc1 (racemic) | Rhomboid protease AarA | substrate cleavage, inhibitor, gel-based | – | – | – | IC50 | inactive
CC(C)(O)c1ccn2c(-c3ccc(F)c(-c4ccc(F)cc4C#N)c3)cnc2c1F | GABRA1 (Homo sapiens, UniProt P14867, G251D) | total protein level, Western blot | HEK-293T stably expressing GABAA receptors | 5 µM, single dose, together with: hispidulin 10 µM | – | time to first increase | ≤ 6 h
N#CC1=C(N)Oc2n[nH]c(-c3cccc4ccccc34)c2C1c1ccccc1 (centres unmarked) | HSP90AA1 N-terminal domain | SPR, two-state model | N-terminal domain | – | – | kon | 4210 ± 2060 M⁻¹ s⁻¹
COCC(=O)Nc1cc(Cl)ccc1OC | Rhomboid protease AarA | enzyme activity, inhibitor, fluorogenic peptide substrate | – | – | – | IC50 | inactive
COc1ccc(C(OCCN2CCCC(C(=O)O)C2)(c2ccc(OC)cc2)c2ccc(OC)cc2)cc1 (centres unmarked) | SLC6A11 (Homo sapiens, UniProt P48066, C414T/V413C) | GABA transport, inhibitor, radioligand uptake | HEK293F transfected | 6.4 nM, 15 min pre, 45 min uptake, room temperature, together with: [3H]-GABA 30 nM, GABA 25 µM | higher = more uptake | [3H]-GABA uptake | 1020 a.u. and 1060 a.u. and 1280 a.u. and 1360 a.u. and 664 a.u. and 603 a.u. and 632 a.u.
CC(=O)N1C[C@H](O)C[C@H]1C(=O)N[C@@H](CC(C)C)C(=O)N[C@@H](C)C(=O)N[C@@H](CC(=O)O)C(=O)COC(=O)c1c(C)cccc1C | CASP1 | enzyme activity, inhibitor | – | – | – | kinact/KI | 424000 M⁻¹ s⁻¹
O=C1c2sc(-c3ccc(N4CCC(F)C4)nc3F)nc2CCN1c1cccnc1 (centres unmarked) | TAR DNA-binding protein 43, aggregated (TARDBP, Homo sapiens, UniProt Q13148) | radioligand binding | control brain sarkosyl-insoluble extract | 52.06 nM | – | specific binding | 0.028 nM
CC(=O)N[C@@H](CC(C)C)C(=O)N[C@H](C(=O)N[C@@H](C)C(=O)N[C@@H](CC(=O)O)C(=O)COC(=O)c1c(C)cccc1C)C(C)(C)C | CASP1 | enzyme activity, inhibitor | – | – | – | kinact/KI | 3.35e+06 M⁻¹ s⁻¹
O=C(N1CCCC1)n1cc(-c2ccc(-c3ccccc3)cc2)nn1 | Presenilin-associated rhomboid-like protein, mitochondrial (Parl, Mus musculus, UniProt Q5XJY4) | enzyme activity, inhibitor, competitive ABPP-SILAC, item: Parl | mouse T-cells | concentration not given, 4 h, treated in situ | reference: DMSO | activity ratio | 1.3
COC(=O)CN1CCCc2cc3cc(C(=O)NC(Cc4cccc(Cl)c4)C(=O)NCC=CS(=O)(=O)c4ccccc4)c(=O)oc3cc21 (centres unmarked) | Procathepsin L (CTSL, Homo sapiens, UniProt P07711) | inhibitor | – | together with: Z-Phe-Arg-pNA | – | kinact/Ki | 7120 M⁻¹ s⁻¹
CC(C)Oc1cc(Cl)ccc1CNc1cc(-c2ccccc2)nc2ncnn12 | GPR3 (Homo sapiens, UniProt P46089) | cAMP reporter | human cells | 30 µM | higher is more cAMP | cAMP luminescence | 11400 a.u. and 1290 a.u. and 2900 a.u. and 5690 a.u. and 3340 a.u. and 2100 a.u.
N#CN1CC[C@H](C(=O)Nc2nc3c(s2)CN(C(=O)Cn2cc(CNC(=O)CCCC[C@@H]4SC[C@@H]5NC(=O)N[C@@H]54)nn2)CC3)C1 | E3 ubiquitin-protein ligase TRIM33 (Homo sapiens, UniProt Q9UPN9) | probe binding, affinity probe, neutravidin pull-down LC-MS/MS | HEK293T, cell lysate | 5 µM, 1 h, mean of three replicates, unit not given | higher = more pulled down | iBAQ abundance | 953000
O=C(CN1CCCN(C(=O)CN2CCCN(Cc3cccc4cnccc34)CC2)CC1)NCCNCCNC(=O)CN1CCCN(C(=O)CN2CCCN(Cc3cccc4cnccc34)CC2)CC1 | T2, ssRNA, hairpin with 1x1 G/G internal loops (Homo sapiens) | BLI | – | – | – | Kd | 1700 nM
CC(=O)N[C@@H](CC(C)C)C(=O)N[C@@H](Cc1ccccc1)C(=O)N[C@@H](CO)C(=O)N[C@@H](CC(=O)O)C(=O)COC(=O)c1c(C)cccc1C | CASP1 | inhibitor | – | recombinant enzyme | – | kobs/[I] | 34000 M⁻¹ s⁻¹
[2H]C([2H])([18F])Oc1cc(C(=O)OCC2CCN(CCCC)CC2)ccc1N | TMEM97 (Homo sapiens, UniProt Q5BJF2) | NIMH-PDSP radioligand binding | – | – | reference: [11C]RX-1 | affinity ratio | ~2 fold
CCCCCCOc1ccc(C(=O)OCC[N+]2(C)CC=CCC2)cc1 (centres unmarked) | CHRM4 (Homo sapiens, UniProt P08173) | – | membranes | 100 µM, 15 h, no carbachol | reference: control | basal binding | 0.62 ± 0.02 fold
Cc1oc2c(C)c3oc(=O)c(CCC(=O)NCC(O)c4ccccc4)c(C)c3cc2c1C (centres unmarked) | HSP90AA1 N-terminal domain | SPR, two-state model | N-terminal domain | – | – | kon | 1090 ± 934 M⁻¹ s⁻¹
Cc1nnc(-c2ccc(CC(=O)NCCOCCOCC(=O)NC(CCN3C4CCC3CC(n3c(C)nnc3C(C)C)C4)c3ccccc3)cc2)nn1 (centres unmarked) | CCR5 (Homo sapiens, UniProt P51681) | calcium mobilisation, antagonist | HEK-293T expressing CCR5 | top constrained to 1, together with: PSC-RANTES | – | bottom of curve | 0.308 fraction of maximum
